Results pooled from the literature.
Numbers after ± are the reported error. In brackets after ≈: the same amount, converted by molar mass.

SMILES | organism | test | test system | setting | scale | measurement | value
CCCCC(=O)NC(c1ccc(N(CC)CC)cc1)c1ccc2cccnc2c1O (centres unmarked) | Trypanosoma cruzi | reporter mRNA translation, inhibitor, refers to: capped polyadenylated Renilla luciferase mRNA | cell-free extract | concentration not given | reference: control RNA | relative translation | 116%
CC1=NN(c2cccc(F)c2)C(=O)/C1=N\Nc1ccc(S(N)(=O)=O)cc1 | Saccharomyces cerevisiae | – | – | 200 µg/mL | – | glucose uptake | 39.6%
O=C(NCCN1CCCC1)c1ccc2cc(C(=O)c3cc(O)c(O)c(O)c3)oc2c1 | Saccharomyces cerevisiae | – | YPD medium | 30 °C | – | MIC | > 128 µg/mL
O=C(c1ccc(F)c([N+](=O)[O-])c1)N1CCN(c2ccccc2F)CC1 | Saccharomyces cerevisiae | microbial growth | – | – | – | IC50 | > 20 µM
Cc1ccc(S(=O)(=O)n2cc3c4c2C(=O)C(N)=CC4=NCC3)cc1 | Saccharomyces cerevisiae | cell growth, liquid culture | BY4741 | 100 µM, 24 h | – | inhibition | 72.8%
COc1ccccc1N1CCN(C(=O)c2ccc(Cl)c([N+](=O)[O-])c2)CC1 | Saccharomyces cerevisiae | growth | YML013C-A homozygous deletion | 35.5 µM | direction not given | Z-score | 8.01
COc1ccc(NC(=O)COc2cccc(OCC(C)C)c2)cc1 | Saccharomyces cerevisiae | microbial growth | – | – | – | MIC50 | 0.5 µg/mL (≈ 1.52 µM)
CC1=NN(c2ccccc2F)C(=O)/C1=N\Nc1ccc(S(N)(=O)=O)cc1 | Saccharomyces cerevisiae | – | – | 10 µg/mL | – | glucose uptake | 39.964 ± 0.000791%
Cc1ccc(S(=O)(=O)n2cc3c4c2C(=O)C(NCCc2ccc(O)cc2)=CC4=NCC3)cc1 | Saccharomyces cerevisiae | cell growth, liquid culture | BY4741 | 100 µM, 24 h | – | inhibition | 35.2%
O=C(c1ccc(Cl)c([N+](=O)[O-])c1)N1CCN(c2ccc(F)cc2)CC1 | Saccharomyces cerevisiae | growth | sec14∆/SEC14 diploid | – | – | IC50 | 7.4 ± 1.2 µM
O=C1C(=O)c2[nH]cc3c2C(=C1I)NCC3 | Saccharomyces cerevisiae | cell growth, liquid culture | BY4741 | 100 µM, 24 h | – | inhibition | 0%
COc1cc(CN(C)CC2CCCN(CCc3ccccc3F)C2)cc(Cl)c1OC (centres unmarked) | Trypanosoma cruzi | reporter mRNA translation, inhibitor, refers to: capped polyadenylated Renilla luciferase mRNA | cell-free extract | concentration not given | reference: control RNA | relative translation | 100%
O=C1C(NCCc2ccc(O)c(Br)c2)=CC2=NCCc3c[nH]c1c32 | Saccharomyces cerevisiae | cell growth, liquid culture | BY4741 | 100 µM, 24 h | – | inhibition | 13.6%
O=C(c1ccc(Cl)c([N+](=O)[O-])c1)N1CCN(c2ccccc2F)CC1 | Saccharomyces cerevisiae | CPY trafficking | – | 4 µM | – | mature CPY | 82%

For quick reference, copied from above:
SMILES | organism | test | test system | setting | scale | measurement | value
O=C(c1ccc(F)c([N+](=O)[O-])c1)N1CCN(c2ccccc2F)CC1 | Saccharomyces cerevisiae | microbial growth | – | – | – | IC50 | > 20 µM
